{"data": "Measured values of several laboratories", "note": "Compare with care: the assays were run in different laboratories."}
{"Compound": "C[C@@H](N)C1CCN(S(=O)(=O)c2cccc3cnccc23)CC1", "test system": "healthy volunteers", "setting": "150 mg, fed", "measurement": "incidence of headache TEAE", "value": "20%"}
{"Compound": "O=C(Nc1nc2cccc(-c3ccc(CN4CCS(=O)(=O)CC4)cc3)n2n1)C1CC1", "test system": "rheumatoid arthritis patients", "setting": "oral, 150 mg once daily, 4 weeks, TEAE regardless of relatedness", "measurement": "incidence of dizziness", "value": "0%"}
{"Compound": "COc1ccc([C@@H](O)c2cc(-c3ncnc4cc(N5CCOCC5)ccc34)c(F)cc2Cl)nn1", "test system": "locally advanced rectal cancer", "setting": "oral, 150 mg, added: capecitabine and radiotherapy", "measurement": "incidence of proctitis TEAE", "value": "33%"}
{"Compound": "NCCONC(=O)[C@@H]1CC[C@@H]2CN1C(=O)N2OS(=O)(=O)O", "test system": "healthy Chinese male subjects", "setting": "intravenous, 2 g", "measurement": "incidence of serious adverse events", "value": "0%"}
{"Compound": "C=CC(=O)Nc1cc(Nc2nccc(-c3cn(C)c4ccccc34)n2)c(OC)cc1N(C)CCN(C)C", "assay": "measured: any AE", "test system": "EGFR-mutant MET-altered NSCLC patients", "setting": "oral, dose not given, AE grade ≥3, all", "measurement": "incidence of treatment-related AEs", "value": "38%"}
{"Compound": "NC1(C(=O)N[C@@H](CCO)c2ccc(Cl)cc2)CCN(c2nc[nH]c3nccc2-3)CC1", "test system": "metastatic CRPC patients", "setting": "400 mg b.i.d., grade 3 to 4, treatment-related, added: enzalutamide 160 mg daily", "measurement": "incidence of Blindness", "value": "0%"}
{"Compound": "CCO[C@H]1CCN(Cc2c(OC)cc(C)c3[nH]ccc23)[C@H](c2ccc(C(=O)O)cc2)C1", "test system": "PNH patients, active haemolysis", "setting": "oral, 100 mg, 8 weeks, treatment", "measurement": "incidence of back pain", "value": "0%"}
{"Compound": "C[C@@H](c1ccc2nccn2c1)n1nnc2ncc(-c3cnn(C)c3)nc21", "assay": "measured: face oedema", "test system": "EGFR-mutant MET-altered NSCLC patients", "setting": "oral, dose not given, AE grade ≥3, all", "measurement": "incidence of treatment-related AEs", "value": "1%"}
